Assay results collected from several papers.
Each numbered part is a random draw from the data of one study; scales do not carry over between parts. Substitutions count along the parent as printed.

Sample 1 — target: CCNB1, cyclin fold, Cln2 fusion (human); technique: yeast growth competition, sequencing; sample: yeast; setting: weak parent motif; relative to: not given; direction: higher = stronger binding
Parent: RBL1 docking peptide (human); GSAKRRLFGEDPP
Variant	normalised enrichment score
R5A	0.752
A3Q	0.357
G9F	1.97
F8N	-0.53
L7Q	1.22
L7P	0.677
G1P	0.422
D11K	0.722
P13F	0.731
R6Q	-0.235
F8K	0.566
R5G	-0.223
P12I	0.733
R6P	-0.132

Sample 2 — technique: RNA Bind-n-Seq; form: RNA; sample: in vitro; tested at: 200 nM; setting: whole 134-nt RNA, ends assumed; together with: 150 mM KCl; relative to: input library; direction: higher = stronger binding
Target: Ras GTPase-activating protein-binding protein 1, full length (G3BP1, Homo sapiens, UniProt Q13283)
UniProt Q13283, sequence (whole entry, looked up): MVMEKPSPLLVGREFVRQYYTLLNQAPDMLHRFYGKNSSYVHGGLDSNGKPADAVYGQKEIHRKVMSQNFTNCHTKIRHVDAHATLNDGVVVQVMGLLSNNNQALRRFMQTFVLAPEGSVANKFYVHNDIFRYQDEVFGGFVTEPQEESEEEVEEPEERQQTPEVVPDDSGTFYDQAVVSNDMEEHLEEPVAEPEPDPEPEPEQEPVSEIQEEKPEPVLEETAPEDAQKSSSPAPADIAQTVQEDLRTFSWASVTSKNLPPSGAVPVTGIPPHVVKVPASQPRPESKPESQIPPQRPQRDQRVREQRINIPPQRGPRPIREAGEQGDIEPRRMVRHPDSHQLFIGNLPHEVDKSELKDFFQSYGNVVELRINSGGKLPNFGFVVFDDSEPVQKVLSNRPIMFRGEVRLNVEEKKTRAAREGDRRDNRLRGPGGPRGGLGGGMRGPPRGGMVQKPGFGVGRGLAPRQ
Shared flanks, not repeated: GGGAGUUCUACAGUCCGACGAUC … UGGAAUUCUCGGGUGUCAAGG
Strand	log2 enrichment
UGUGAGACUGAAGAUUAUGGAGAAAAGUUUGAUGAAAAUGAUGUGAUUACAUGUUUUGCUGUAAGUUAAAGCUAACUUUCUAUGUAUAAA	-1.36
AAGUCCUGUGCUACACAUCGUAUGUACCGAAUCAAACCCAAAUUUAAACCCCCAAAAAAGUAUUAUGUUACGCCGUUCGGAUCUGCACUU	-0.51
AGUCCUGUGCUACACAUCGUAUGUACCGAAUCGGGUUUGGGAAAAAGGGUUUUUGGGAAAGUAUUAUGUUACGCCGUUCGGAUCUGCACU	-0.101
CCUGUGCUACACAUCGUAUGUACCGAAUCGGGGCCCCCCGGGCCCCCCGGGGCCCCCCGGGAAAGUAUUAUGUUACGCCGUUCGGAUCUG	-0.677
UAACUUUAGAGGAGGAUCUGAUGGAUAUGGCAGUGGACGUGGAUUUGGGGAUGGCUAUAAUGGGUAUGGAUGAGGACCUGGAGGUGGCAA	0.333
UCCUCAAGUCCUGUGCUACACAUCGUAUGUACCGAAUCGGGAGGAGGAGGGGAAAGUAUUAUGUUACGCCGUUCGGAUCUGCACUUCCAG	0.257
GCAGGAAGUAAAAACAAAUGGAAAUGCUUCGGAUAGUGGCAGGGGUGGGGGUUGCUAAGGUAAGGGUGGGAUGGGAGUGGGUAAAGAGUU	0.69
UGGGAGGUAGAUUUUGUUUAUUUUUUUAGCUCAUUUCCAGGGGUGGGAAUUUUUUUUUAAUAUGUGUCAUGAAUAAAGUUGUUUUUGAAA	-0.642
UGGCCCUGGUGGCAUGCGGGGAGGUAGAGGUGGCCUCAUGGAUCGUGGUGGUCCCGGUGGAAUGUUCAGAGGUGGCCGUGGUGGAGACAG	0.394

Sample 3 — technique: aptamer microarray, sandwich; form: DNA with 2'F-ANA; sample: in vitro; tested at: 200 nM; together with: Cy3 exosite-II aptamer, 400 nM; direction: higher = stronger binding; strand: GGTTGGTGTGGTTGG
Target: Prothrombin, mature alpha-thrombin (F2, Homo sapiens, UniProt P00734)
Setting: whole 15-mer aptamer, many near background
Modification	mean fluorescence intensity
2'F-ANA at 2 3 5 7 8 9 10 12 13	57 a.u.
2'F-ANA at 1 2 4 6 7 10 11 13	49.3 a.u.
2'F-ANA at 3 5 7 8 11 13 14	61.5 a.u.
2'F-ANA at 1 2 4 9 11 14	49.4 a.u.
2'F-ANA at 2 3 5 6 8 11 14 15	51.1 a.u.
2'F-ANA at 1 4 5 6 7 9 14	45.3 a.u.
2'F-ANA at 4 5 8 10 12 13 14 15	61.1 a.u.
2'F-ANA at 2 6 7 8 9 10 14 15	84.5 a.u.
2'F-ANA at 3 6 8 9 11 13 15	747 a.u.
2'F-ANA at 2 3 5 9 10 11 13 14 15	79 a.u.
2'F-ANA at 3 4 5 13 14 15	49.8 a.u.
2'F-ANA at 1 2 4 6 7 8 9 11 13 14 15	52 a.u.
2'F-ANA at 1 2 3 4 5 6 8 9 13 14 15	64.6 a.u.
2'F-ANA at 1 4 5 6 7 9 10 11 12 13 14 15	59.9 a.u.
2'F-ANA at 4 9 10 11 14	59.4 a.u.

Sample 4 — technique: universal PBM; form: double-stranded DNA, one strand shown; sample: in vitro; tested at: 600 nM; direction: higher = stronger binding
Target: Sal-like protein 4, full length isoform A (SALL4, Homo sapiens, UniProt Q9UJQ4, residues 1-1053)
UniProt Q9UJQ4, sequence (whole entry, looked up): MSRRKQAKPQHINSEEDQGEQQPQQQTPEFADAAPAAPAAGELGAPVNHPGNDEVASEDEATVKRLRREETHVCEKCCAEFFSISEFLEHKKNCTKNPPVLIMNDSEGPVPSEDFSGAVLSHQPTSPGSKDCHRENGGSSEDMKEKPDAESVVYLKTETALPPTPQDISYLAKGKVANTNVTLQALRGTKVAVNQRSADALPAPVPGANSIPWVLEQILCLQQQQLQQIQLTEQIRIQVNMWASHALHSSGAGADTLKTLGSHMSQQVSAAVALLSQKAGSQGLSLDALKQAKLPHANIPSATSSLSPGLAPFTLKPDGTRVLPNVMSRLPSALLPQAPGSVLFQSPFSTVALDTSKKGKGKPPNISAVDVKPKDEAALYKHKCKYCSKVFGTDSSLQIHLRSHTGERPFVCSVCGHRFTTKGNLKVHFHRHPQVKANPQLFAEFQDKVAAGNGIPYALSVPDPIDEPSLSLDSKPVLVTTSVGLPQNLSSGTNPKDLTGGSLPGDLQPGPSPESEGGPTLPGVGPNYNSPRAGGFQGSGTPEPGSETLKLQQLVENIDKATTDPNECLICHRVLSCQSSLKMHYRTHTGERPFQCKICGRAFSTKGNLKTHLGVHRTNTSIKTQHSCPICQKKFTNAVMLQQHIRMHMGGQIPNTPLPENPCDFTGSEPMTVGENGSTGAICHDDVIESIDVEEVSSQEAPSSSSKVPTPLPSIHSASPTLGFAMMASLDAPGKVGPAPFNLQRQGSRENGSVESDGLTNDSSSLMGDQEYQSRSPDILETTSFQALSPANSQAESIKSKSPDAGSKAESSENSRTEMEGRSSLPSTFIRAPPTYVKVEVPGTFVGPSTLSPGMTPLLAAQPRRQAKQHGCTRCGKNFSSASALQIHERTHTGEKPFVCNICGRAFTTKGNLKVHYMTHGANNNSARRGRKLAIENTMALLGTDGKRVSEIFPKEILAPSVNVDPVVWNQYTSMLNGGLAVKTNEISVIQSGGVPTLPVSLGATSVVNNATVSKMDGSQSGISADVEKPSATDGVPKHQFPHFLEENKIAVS
Setting: 8-mer, flanks averaged, mean of replicates
Strand	E-score
CAGGGCTC	-0.299
ACCCGAGT	-0.208
ATCTGGTA	0.116
CTAATCTC	0.128
ACTTAACC	0.183
TACAGTGA	0.122
CTTGAACC	0.062
AGCTTGCC	-0.213
AAGCAGAA	0.113
GCAACAAC	-0.0101
CAGGGCAA	-0.0695
AGCATGTC	0.00931
CGAATCTC	-0.128
AGATTCAA	0.134
GGTGTGAA	0.163
CGAAGTGC	-0.00843
ACAGTAGA	0.266
AGCGATAG	-0.119
ACCTGCGG	-0.334
ATGTCCTC	0.144
ACAAGCTG	-0.128
AGCCTATG	0.0561
ACGGCGTA	0.0341

Sample 5 — technique: RNA Bind-n-Seq; form: RNA; sample: in vitro; tested at: 100 nM; relative to: input RNA pool; direction: higher = stronger binding
Target: RING finger protein unkempt homolog, zinc fingers 1-6, SBP tag (UNK, Homo sapiens, UniProt Q9C0B0, residues 30-357)
UniProt Q9C0B0, sequence (30-357, looked up): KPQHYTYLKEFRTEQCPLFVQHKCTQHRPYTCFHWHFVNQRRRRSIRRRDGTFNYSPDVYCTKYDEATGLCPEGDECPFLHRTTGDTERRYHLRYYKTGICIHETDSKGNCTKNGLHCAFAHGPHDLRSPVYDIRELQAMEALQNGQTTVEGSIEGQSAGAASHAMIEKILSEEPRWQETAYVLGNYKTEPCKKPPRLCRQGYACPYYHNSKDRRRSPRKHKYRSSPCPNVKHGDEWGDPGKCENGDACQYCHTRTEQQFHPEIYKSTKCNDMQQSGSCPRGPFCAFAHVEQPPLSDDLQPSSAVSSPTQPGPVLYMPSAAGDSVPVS
Setting: RNA with constant flanks, vertebrate orthologous sites, ends assumed
Shared flanks, not repeated: GGGAGUUCUACAGUCCGACGAUC … CAACAGAGGAUUGAGCAUCA
Strand	bound/input enrichment
AGCCAUUUUUCCCACGUUUUCUGUAAAUAAUGGAUAAUCUUUUUUUAAAAAAAUUAUUUUUAAUGCUGUUUUAACAAUGUGGAUAGAUCAUAAAUGUACUUGCUGAAUUCAAUCAUUUUU	0.231 ratio
UUCCCCGUUACCCCUAAAGUAGAACUUUUUAAAACUGUGUCACCACCACGUCUAAAAAUUUAGCAAUAUUAGAAGAAAACACUAAUGAAGUUCUGCUCAUUGUUUUGCAAACGAGAUAGA	0.71 ratio
AUUCAAACCAGUGGUACCAUGGCCUCAUGUUGAAGGAGUAGAAGUGGACUUAGAGUCUAUUAGAAGAAAAAACAAGGCCAAAAAUGAACAAGAACACCAUGCUGGAGGAGAUUCCCAGAA	0.337 ratio
UGUUGUUCAAGCACUGUGUUCCAGACCGUGUCUGACCUUAGUGUGACCUAGGAGAGUUUCUAGUUUUGUUUUACCGAGAUCCUGCACGGCAGGCGCACGGCAGCGGAGGGCCACAUCCGC	0.612 ratio
GCAUUUGCCGCUAUCACCAAAAGCAAACUUCCACUUUUCAAAAUUCAUUCAGAGCCGUUUUAGUGUUUCCUGUUCCGUACCCUUCCCACGACUUUCUCUGAUGAAAUAUCCUGUUCUCCU	0.806 ratio
AUCCCAGUUUGUAUGCACAUUAUUCCCAUUCCUAUCUGUUGUGUUUGCAGAAAUUACAUUUUACCCUUUUCUAAGGAAUAUCUUUUGAUUUUCAUAUUAUUUGGUUGCAUGGAGUUGCCC	0.602 ratio
GAUUUUCAAUCUCUUCUCCCCUGUCCUGAUUUUAAAAGCCCUUCUUUUUUUUUCUUUUUUUAGGCAUAUGUAGUAAUAUUAGAAACAUUUAAUUUGGGAAACUUUGAUUCUUGAAAGAGA	0.974 ratio

Sample 6 — technique: RNA Bind-n-Seq; form: RNA; sample: in vitro; tested at: 365 nM; relative to: no-protein control; direction: higher = stronger binding
Target: RNA binding protein fox-1 homolog 2, RRM domain, GST-SBP tag (RBFOX2, Homo sapiens, UniProt O43251-10, residues 100-194)
Setting: natural RNA segment, single round, ends assumed
Shared flanks, not repeated: GGGAGUUCUACAGUCCGACGAUC … UGGAAUUCUCGGGUGCCAA
Residues (chain): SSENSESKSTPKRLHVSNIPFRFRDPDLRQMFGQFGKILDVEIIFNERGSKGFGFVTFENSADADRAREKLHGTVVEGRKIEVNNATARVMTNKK
Strand	RBNS enrichment (R)
AGAUAUUGUUCAGCUUGAGUUGGGUCAUGCCAAACAGUCAUUUAUUUGGUGGGUAGAAAUACAGUCAGGUGGUUAUAGAGCACAUACCUAGCAUAUGUGAAGCCAUGGGU	0.491
UGCUUGUGGUUUAGGUUCCCCUCUCCUUUUUUUCUUUUUAAUUCAAUUUGGAAUCAGAAAGCUGGAUUCUGGUAAAUGGUCUUGUGCCCUUUAUCCUACUCAUCCCCGAU	0.826
ACUUUUUAUUCUUUAUCAUAGCUAAGUAAAUACCAAAAAAAAAAAAAAGCUUUGUAGGACACUUGUACUUAGUUUGGGAAAAAAAAAUAAAUUGAAAUUGUUAUGCUUUU	0.629
UAUUAUGUGAAUGCUACAUUUGUUCUGAACACUUAGGGGCUGCAAAAAUGUAAUAAGAAAUGCAUAUGACUAGAUAGCAAUAGUGUUUUUUUUAGAUGGUAUGCUCUUGA	0.669
GAUCCACUGAUGGCCCUGGCCCCUGCUGGGGCGGGGCAGGAGGCAGCCCUGCUCCUUGCCUUUUGCAUUGUCAUUCCUCCCCUCUGUCCAGGUCAUUCCUUGGCUAAGCC	0.478
UCCAUUGCUCUUGGCUUCAUGGUGUUCCUGGAAGGCAGAUGAGCUGGUCAUUUCGCCUGGGACUCGGCACCUUUCCGAGUGCAGCUGGAGGGAUCUGAGCGCAGGAAGAC	0.786
UCUUGAGCUGGUCUCCUGCCUCCACCCCCUGAGUGCUGGGGUUACAGGUGAUAGCUGGUCUCCUGCCUCCACCUCCUGAGUGCUGGGGUUACAGGUGAUCGCUGGUCUCC	0.253
UAGUAUUGUAGUCUUCAUAGAAAUCAUUUCUAGUUACAGAAAAAUUUAACUCCAGAAUAUGGUGAUACAGUUUAUGUUAAGAAACAUAUUUUAAUUUAUUAUGCCAUGAA	1.6
GCCUCCUCCAUCAGAUGCCUGGGCCUCCUCCAUCAGAUGUCUGGGCCUCCUCCAUCAGAUGCCUGGGCCUCCUCCAUCAGAUGUCUGGGCCUCCUCCAUCAGAUGUCUGG	0.305
UACCAUGUGACCGGAGCAGAGGAAUUUGAAUUUGGCAGGAGCUUUUUCUACUGGAGAGACCCUCACUUUGGGGUGAUGGUCCUGACCUAGACCCAGAGUCUGGAAGCUUC	0.291
UGCCGUACUGCAUCAUCAUUUGUUUUCUUUGUAGACACUGAAAUCCUAUCAGGAGGAUUCCUUCACAAUGUAUUUUAUUUGCUAGACUUUGGUUGGGAGGGAAAAGGACA	1
ACACAGAACAGUGAAGGCUACAGGUCAUCAUCAAAGUCCUCUCCGGUUGUAAAGAGGUUGUGCAGUUGCAAGGGUGGAGCCUUCUGGGUCCCUUGAGCCAAAGGCCUACC	0.377
